Measurements from different studies.
A part holds a random share of what one study measured. Substitutions count along the parent as printed.

Series 1 — method: aptamer microarray, sandwich; form: DNA with 2'F-ANA; sample: in vitro; concentration: 200 nM; added: Cy3 exosite-II aptamer, 400 nM; direction: higher = stronger binding; strand: GGTTGGTGTGGTTGG
Target: Prothrombin, mature alpha-thrombin (F2, Homo sapiens, UniProt P00734)
Setting: whole 15-mer aptamer, many near background
Modification | mean fluorescence intensity
2'F-ANA at 2 5 6 7 11 12 | 114 a.u.
2'F-ANA at 1 2 3 5 7 10 11 12 13 15 | 85.1 a.u.
2'F-ANA at 7 8 11 13 14 | 238 a.u.
2'F-ANA at 1 3 5 6 7 12 13 14 15 | 46.4 a.u.
2'F-ANA at 2 3 4 5 9 12 13 14 | 47.1 a.u.
2'F-ANA at 7 8 10 | 180 a.u.
2'F-ANA at 1 3 5 7 10 12 13 14 | 43.3 a.u.
2'F-ANA at 1 3 5 6 8 9 10 11 13 | 49.9 a.u.
2'F-ANA at 1 2 3 4 7 8 9 10 11 13 14 15 | 63.6 a.u.
2'F-ANA at 1 2 9 10 11 12 14 15 | 53.5 a.u.
2'F-ANA at 1 4 5 6 8 10 11 | 49.4 a.u.
2'F-ANA at 7 11 14 | 223 a.u.
2'F-ANA at 2 5 6 7 9 10 11 15 | 97 a.u.
2'F-ANA at 2 4 5 7 11 12 13 14 | 48 a.u.
2'F-ANA at 1 3 4 11 12 13 14 | 87.9 a.u.
2'F-ANA at 1 2 3 5 7 11 12 13 14 | 220 a.u.
2'F-ANA at 1 2 3 4 5 8 11 14 | 49.1 a.u.

Series 2 — method: RNA Bind-n-Seq; form: RNA; sample: in vitro; concentration: 365 nM; baseline: no-protein control; direction: higher = stronger binding
Target: RNA binding protein fox-1 homolog 2, RRM domain, GST-SBP tag (RBFOX2, Homo sapiens, UniProt O43251-10, residues 100-194)
Setting: natural RNA segment, single round, ends assumed
All sequences stand within: GGGAGUUCUACAGUCCGACGAUC … UGGAAUUCUCGGGUGCCAA
Target sequence (chain): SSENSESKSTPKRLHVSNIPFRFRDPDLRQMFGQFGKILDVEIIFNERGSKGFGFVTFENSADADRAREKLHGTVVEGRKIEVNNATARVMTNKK
Strand | RBNS enrichment (R)
UGAGACACGAUGCCGAGACCUCAAGCCCUGAGGGGCAGUCCCAAAACCCUUACAGUGAAGAUGUUUACUCAUUGCCCCCACCUCUGGUCCACACUAGAAAGAAGCUCGCC | 0.354
UUGCUCUCCCUUAGUGUUCCCUGGCCUCCCUGCCAUCAGGUUGCUGGGAGUGGAGAUGGAGGGAUUAUUGAGCAGAAAAUGAGUUGGAUGGAGAUAAACAGCUCCCAUCC | 0.347
GCAGAACCAAUGGCCCCAGUCGGCUUUUGAGGUCUUGGUGAGAAGUACUGGCCACGAAAGGGUCUUGUGUAAAGUUACAUCAUCGGAGAGCGGUUUUUGAGCUUUCAAUA | 0.37
GGUGUUGUCCAAGCUGCGCAUCGGUGCACAGUGUGGCCUGGCACACACGCAGGCGGGCGACGGAACUUGAAGGGUUAUUGACAUGCAAAUGCUGGUGUUUGAUUUCCUGU | 1.51
GCUGGGAUGACAGGCGCACACCACCACGCCCAGCAAAUUUUUUGUAUUUUUAGUAGAAACGGGAUUUCACCUUGUUAGGCUGGUCUCGAACUCCUGACCUCAGGUGAUCC | 0.322
GGCACCUAAUGGGGAUGGAACAUUGGUGGAACCGGAGGGAGGGGCCUGAGAGCUGUACCUAUCAGAACCUUGGGUGCUAAGCUGUGCUGAGGGGGAAGACGUGGGACCGG | 0.965
UGCUCUGACCUUGUGUAUUCUGACUCUUUGGAAACCAGGCCCUGCUUUUGCCAAGCCUCCCAUCCUGAGCUCUAAAUGGAAGGCCUUUCUAUGGGGUAGCUAAGUUUGGG | 0.242
AACAGCCCAGUGAGGCUGAAGUUCUCUUGUAGAAAUUCCUUUCCUGGGUAAAGUGAUGAGCCAUGUUUAUCUACUGAUCAGCUUCAUCAAAUUCGCAUCUAACUGAAUGG | 0.38
CUGCAGUGGAAUGGAGAGGAAAAUACUUCUAGGCAAGCAGCUAGACUGGUGAAUUGGGGGAAAUAGAAGGAACUAGUAACUGAGACUCCUCCAGCCUCCUCCCUAUUGGA | 0.487
UGUGUCUGAAGACAGUGACAGUGUACUCAUAUACAUAAAGAAAUCUUUUUUUAAAAAAGAGAGAAAAGAAAAACUAGUUGGUGGACAUGGUGGGUGACACGCCUUUAAUC | 0.4
GUGGGUUCCCUGCCACCCAGGCAAACAGGCUGAAGAUUCUCACCUUUUCUUUCCAGUGUGAUUACACGUGCAUUUCCAGGUGCUGAUUUGCAGCUCUCUGUUACCUUAAU | 0.254
CUCCUGUUUGCCAGGGGAAAGAACCUAAAGACUUCGUGUGAUUGGGAGGGGUGGCAGACAGGAAGAAAACAUGUCCAGGCCCCUGGUCUCCAUAGAGAAUGGUGCUUUGU | 1.13

Series 3 — method: DHFR PCA, deep sequencing; sample: yeast; added: (+)-ABA 710 µM; baseline: wild-type fitted maximum; direction: higher = stronger binding
Target: ABI1, truncated, D143A, DHFR fusion (Arabidopsis thaliana)
Setting: methotrexate growth selection, single substitutions
Starting sequence: PYL1, truncated, DHFR fusion (Arabidopsis thaliana); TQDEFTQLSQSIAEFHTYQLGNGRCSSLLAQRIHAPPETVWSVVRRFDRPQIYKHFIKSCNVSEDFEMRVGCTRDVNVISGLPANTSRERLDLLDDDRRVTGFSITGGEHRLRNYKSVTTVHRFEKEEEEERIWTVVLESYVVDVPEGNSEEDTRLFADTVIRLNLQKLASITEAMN
Change | relative binding score
T73M | 101%
C25T | 103%
E127R | 102%
P37M | 90.8%
N77H | 104%
I172R | 83.8%
A30R | 105%
T173A | 101%
D95S | 95.4%

Mixed results
Substance | target | test | system | conditions | scale | endpoint | value
PhoQ, residues 284 288 289 292 302 303 TLSLKA | PhoP, residues 12 14 15 18 19 NYFTV (Escherichia coli, UniProt P23836) | Sort-seq, measured: YFP reporter | E. coli | PhoQ-PhoP variant library, added: 10 µM Mg2+ | baseline: high Mg2+ state, higher = stronger signaling | fold induction | 2.33

Some of these lines once more (series 3):
Change | relative binding score
P37M | 90.8%
N77H | 104%
T173A | 101%
C25T | 103%
I172R | 83.8%
T73M | 101%
D95S | 95.4%
